Published values of several laboratories.
Every numbered part comes from another study and shows a few of its results, in no order. Changes are numbered by the printed parent chain.

Set 1
Target: CCNE2, cyclin fold, Cln2 fusion (human)
Method: yeast growth competition, sequencing
Medium: yeast
Notes: strong parent motif
Reference: not given
Reading: higher = stronger binding
Starting sequence: PKN2 docking peptide (human); VSAVRKLDFSDTM
`L7Q`: “normalised enrichment score” 0.257.
`S2R` — result for “normalised enrichment score”: 4.77.
Under “normalised enrichment score”, `D8C` is recorded as 3.89.
Under “normalised enrichment score”, `S2L` is recorded as 3.4.
`K6T` — result for “normalised enrichment score”: 2.75.
`A3P` — result for “normalised enrichment score”: 1.28.
For `F9W`, “normalised enrichment score” read 2.
`S2T`: “normalised enrichment score” 4.51.
`S2G` — result for “normalised enrichment score”: 5.01.
`R5A`: “normalised enrichment score” 0.186.

Set 2
Molecule: PhoQ, residues 284 288 289 292 302 303 ALSMDL
Method: Sort-seq
Measured: YFP reporter
Medium: E. coli
Notes: PhoQ-PhoP variant library
Added: 10 µM Mg2+
Reference: high Mg2+ state
Reading: higher = stronger signaling
PhoP, residues 12 14 15 18 19 ICWRQ (Escherichia coli, UniProt P23836) — fold induction: 11.8.
PhoP, residues 12 14 15 18 19 VHTVL (Escherichia coli, UniProt P23836) — fold induction: 1.96.
The fold induction was 5.06 (PhoP, residues 12 14 15 18 19 TQCLL (Escherichia coli, UniProt P23836)).

Set 3
Target: Ras GTPase-activating protein-binding protein 1, full length (G3BP1, Homo sapiens, UniProt Q13283)
UniProt Q13283, sequence (whole entry, looked up): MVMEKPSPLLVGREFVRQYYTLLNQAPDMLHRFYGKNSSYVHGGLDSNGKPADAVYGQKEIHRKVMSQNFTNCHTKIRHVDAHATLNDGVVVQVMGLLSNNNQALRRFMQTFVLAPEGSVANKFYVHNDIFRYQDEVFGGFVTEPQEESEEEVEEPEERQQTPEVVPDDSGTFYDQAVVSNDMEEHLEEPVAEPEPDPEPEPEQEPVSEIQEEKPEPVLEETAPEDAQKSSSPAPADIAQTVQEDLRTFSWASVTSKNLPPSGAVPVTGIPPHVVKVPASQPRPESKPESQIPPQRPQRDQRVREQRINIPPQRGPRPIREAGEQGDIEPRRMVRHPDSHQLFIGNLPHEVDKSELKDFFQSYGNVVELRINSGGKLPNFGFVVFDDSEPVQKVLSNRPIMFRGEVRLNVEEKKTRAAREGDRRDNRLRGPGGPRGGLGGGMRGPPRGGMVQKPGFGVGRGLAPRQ
Method: RNA Bind-n-Seq
Molecule type: RNA
Medium: in vitro
Concentration: 200 nM
Notes: whole 134-nt RNA, ends assumed
Added: 150 mM LiCl
Reference: input library
Reading: higher = stronger binding
Each molecule: 7-deaza-guanosine replaces G
Constant ends, left off below: GGGAGUUCUACAGUCCGACGAUC … UGGAAUUCUCGGGUGUCAAGG
`UGUGAGCUGACUUUUUGGAUCAACUUUACUUUUCCCUUCUUUUUAGGCAAUUGAAGAUGAAGGUGGUAAUCCUGACGAAAUUGAAAUUAC` has a log2 enrichment of 0.425.
With `UAGGAGGUGGAUUUUGUUUAUUUUUUUAGCUCAUUUCCAGGGGUGGGAAUUUUUUUUUAAUAUGUGUCAUGAAUAAAGUUGUUUUUGAAA` the log2 enrichment was 0.0863.
With `ACCAUGCAGGUGGGCAUCUUUGGGAAGUGGGGCAAGGGGGGGAUAGGGAGGGGGGUGACACUUUGGGAACAGGUGGUCCCAGGUCGUUUC` the log2 enrichment was 0.149.
The log2 enrichment of `UUGUGUUCGUGAAUUGUAACUCCAGAAGCAAUGCCUGUACAAGCUCCACAAUGGACGGAUUUCCUCUCCUGCCCAAUUUGCACUCAGACU` is reported as 1.66.
With `AAGUCCUGUGCUACACAUCGUAUGUACCGAAUCGGUUUUUUUGGAGGUUUUUUUGGAAAGUAUUAUGUUACGCCGUUCGGAUCUGCACUU` the log2 enrichment was -1.13.
`CCUGUGCUACACAUCGUAUGUACCGAAUCAAACCCCCAAACCCCCCCAAACCCCCCCAAAAAAGUAUUAUGUUACGCCGUUCGGAUCUGC` has a log2 enrichment of 0.0444.
`UUCCUCAAGUCCUGUGCUACACAUCGUAUGUACCGAAUCGGUGGAGGAGGAAAGUAUUAUGUUACGCCGUUCGGAUCUGCACUUCCAGCA` has a log2 enrichment of -1.45.
`UUCCUCAAGUCCUGUGCUACACAUCGUAUGUACCGAAUCGGUGGGUGGUGGAAAGUAUUAUGUUACGCCGUUCGGAUCUGCACUUCCAGC` has a log2 enrichment of 0.507.
`CACAGACAACACGCACCCACACAGACACAGAGGGAAGGGGUUGGGAUGGGGACAGGGUGCACAGCAGAAAGGGGUAGGACCCCAGCCCCU` gave a log2 enrichment of 0.366.
`CUCAAGUCCUGUGCUACACAUCGUAUGUACCGAAUCGGAAGGAAGGGGAAGGGAAAGUAUUAUGUUACGCCGUUCGGAUCUGCACUUCCA` has a log2 enrichment of -0.0659.
`AAGUCCUGUGCUACACAUCGUAUGUACCGAAUCGGGAAAGGGUUUUUUUGGGAGGGAAAGUAUUAUGUUACGCCGUUCGGAUCUGCACUU` has a log2 enrichment of -0.809.

Set 4
Target: ABI1, truncated, D143A, DHFR fusion (Arabidopsis thaliana)
Method: DHFR PCA, deep sequencing
Medium: yeast
Notes: methotrexate growth selection, single substitutions
Added: (+)-ABA 58 µM
Reference: wild-type fitted maximum
Reading: higher = stronger binding
Starting sequence: PYL1, truncated, DHFR fusion (Arabidopsis thaliana); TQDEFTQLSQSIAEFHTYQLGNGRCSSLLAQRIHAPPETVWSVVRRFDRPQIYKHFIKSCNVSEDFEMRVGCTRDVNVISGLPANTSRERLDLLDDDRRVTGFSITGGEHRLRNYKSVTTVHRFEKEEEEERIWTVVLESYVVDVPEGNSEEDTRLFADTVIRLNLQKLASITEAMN; partner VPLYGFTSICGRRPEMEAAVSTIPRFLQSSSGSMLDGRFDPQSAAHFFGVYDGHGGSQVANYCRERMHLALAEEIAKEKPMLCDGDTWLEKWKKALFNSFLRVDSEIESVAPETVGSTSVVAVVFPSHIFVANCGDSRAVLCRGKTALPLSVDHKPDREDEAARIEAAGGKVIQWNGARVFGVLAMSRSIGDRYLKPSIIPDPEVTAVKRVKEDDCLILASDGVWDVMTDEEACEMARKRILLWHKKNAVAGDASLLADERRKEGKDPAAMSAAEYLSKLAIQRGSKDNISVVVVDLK
For `I172N`, “relative binding score” read 25.1%.
`R132W` — result for “relative binding score”: 75.2%.
`R123T`: “relative binding score” 94.3%.
Under “relative binding score”, `R46D` is recorded as 29.4%.
For `D97I`, “relative binding score” read 90.9%.
For `C25P`, “relative binding score” read 8.99%.
Under “relative binding score”, `R90T` is recorded as 77.1%.
`G81K`: “relative binding score” 27.9%.
`L156P`: “relative binding score” 1.13%.
`P146T`: “relative binding score” 30%.
`W41H` — result for “relative binding score”: 1.29%.
`S59T` — result for “relative binding score”: 84.6%.

Excerpt of the above (set 1):
Under “normalised enrichment score”, `D8C` is recorded as 3.89.
Under “normalised enrichment score”, `S2L` is recorded as 3.4.
`K6T` — result for “normalised enrichment score”: 2.75.
`A3P` — result for “normalised enrichment score”: 1.28.
For `F9W`, “normalised enrichment score” read 2.
`S2T`: “normalised enrichment score” 4.51.
